# Measurements pooled from the literature.
# Every numbered part comes from another study and shows a few of its results, in no order.

# Series 1
# Target: Cyclic AMP-dependent transcription factor ATF-1, full length (ATF1, Homo sapiens, UniProt P18846, residues 1-271)
# Method: protein-binding microarray
# Molecule type: hairpin DNA
# Sample: in vitro
# Concentration: not given
# Notes: whole hairpin DNA, median over replicate spots
# Reference: not given
# Reading: higher = stronger binding
# Shared flanks, not repeated: GAGGCCG … CGGCCTCACACTC
# Construct (chain): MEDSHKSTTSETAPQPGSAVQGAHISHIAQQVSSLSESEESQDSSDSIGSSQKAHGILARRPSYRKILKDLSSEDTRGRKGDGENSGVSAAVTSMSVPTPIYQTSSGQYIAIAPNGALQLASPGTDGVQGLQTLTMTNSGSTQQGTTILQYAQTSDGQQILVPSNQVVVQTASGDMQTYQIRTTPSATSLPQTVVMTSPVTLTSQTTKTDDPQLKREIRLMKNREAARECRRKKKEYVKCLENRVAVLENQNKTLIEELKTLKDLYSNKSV
Strand,median fluorescence
GACGACGTCAGCCTCCTGGCTGACGTCGTC (5mC at 10 34),6300 a.u.
GAGGACGTCAGCCTCCTGGCTGACGTCCTC,4540 a.u.
GCTAACGTCAGCCTCCTGGCTGACGTTAGC,4370 a.u.
AGGACGTCGTGCCTCCTGGCACGACGTCCT (5mC at 15 29 35 36),3400 a.u.
ACGCGGTCGTGCCTCCTGGCACGACCGCGT (5mC at 9 11 15 29 35),3550 a.u.
GCTGACGTCGGCCTCCTGGCCGACGTCAGC (5mC at 16 28),5860 a.u.
GCCGACGTCAGCCTCCTGGCTGACGTCGGC (5mC at 10),7370 a.u.
GATGACGTCAGCCTCCTGGCTGACGTCATC (5mC at 38),15800 a.u.

# Series 2
# Target: Sal-like protein 4, full length isoform B (SALL4, Homo sapiens, UniProt Q9UJQ4-2, residues 1-616)
# Method: universal PBM
# Molecule type: double-stranded DNA, one strand shown
# Sample: in vitro
# Concentration: not given
# Notes: 8-mer, flanks averaged, mean of replicates
# Reading: higher = stronger binding
Strand,E-score
GGTAAATA,0.234
CCTTTAGC,-0.071
CGGGAGGC,-0.358
ACGCTGCC,-0.272
CGAATCAC,-0.105
ATTAATGC,0.294
AGGTAGTG,-0.0274
AAGTAAGC,0.0866

# Series 3
# Target: PABPC1L2, full length, GST fusion (mouse, UniProt A0ABA7IW68)
# Method: RNAcompete
# Molecule type: RNA
# Sample: in vitro
# Concentration: 20 nM
# Notes: 7-mer, probes averaged, single round
# Reference: mean of 7-mers
# Reading: higher = stronger binding
# Residues (chain): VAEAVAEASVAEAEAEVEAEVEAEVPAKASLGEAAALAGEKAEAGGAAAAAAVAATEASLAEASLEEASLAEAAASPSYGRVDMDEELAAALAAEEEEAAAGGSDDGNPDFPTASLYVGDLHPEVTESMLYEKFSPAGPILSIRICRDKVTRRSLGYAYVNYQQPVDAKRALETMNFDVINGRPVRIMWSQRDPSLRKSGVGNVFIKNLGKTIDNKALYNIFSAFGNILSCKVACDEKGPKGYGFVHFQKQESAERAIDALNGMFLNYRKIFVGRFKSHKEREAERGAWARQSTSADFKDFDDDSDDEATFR
Strand,7-mer Z-score
CACUUCA,-0.173
UGCUAUG,-0.161
GUACUUU,-0.295
CGUGGAG,0.12
CUGUGCA,-0.0736
UCACAGA,0.0551
CUGGUUC,-0.338
GCAUGUG,-0.0899

# Other studies, line by line
Compound,method,refers to,species,dose,notes,measurement,value
CC(C)n1cnc(-c2ccc(F)cc2)c1-c1ncc(C(=O)Nc2ccc(N3CCN(C)CC3)cc2)[nH]1,Phase 2a trial,tri-iodothyronine increased,idiopathic pulmonary fibrosis patients,30 mg once daily,grade 4 maximum intensity,patients with adverse events,0%

# Some of these lines once more (series 2):
Strand,E-score
AAGTAAGC,0.0866
ATTAATGC,0.294
